Published values from different studies.
Lines come from different studies, so protocols differ. Several values in a cell are separate wells, animals, samples, runs or records. ± marks the error that the study gave.

The ERK1/2 phosphorylation of `CC(C)C[C@H](NC(=O)[C@@H](CCCCNC(=O)CCCCCN1C(=CC=CC=CC2=[N+](C)c3ccc(S(=O)(=O)O)cc3C2(C)C)C(C)(C)c2cc(S(=O)(=O)[O-])ccc21)NC(=O)[C@H](Cc1ccc(O)cc1)NC(=O)[C@H](CO)NC(=O)[C@H](Cc1c[nH]c2ccccc12)NC(=O)[C@H](Cc1c[nH]cn1)NC(=O)[C@@H]1CCC(=O)N1)C(=O)N[C@@H](CCCNC(=N)N)C(=O)N1CCC[C@H]1C(=O)NCC(N)=O` is reported as 3.2 ± 0.89 fold (GnRH receptor (rat); agonist, Western blot; 10 nM, 60 min; relative to: basal).
The inhibition of `CC[C@@H]1[C@H](F)C(=O)N[C@@H]1COc1nccc2cc(C(N)=O)c(OC)cc12` is reported as -6.6% (CK1 delta and epsilon; ATP-site probe binding, inhibitor, ActivX ATP probe profiling; THP-1 cell lysate; 0.01 mM, probe site Lys2).
With `NCCOc1cc(NC(=O)c2cc(OCc3c[nH]nn3)cc(C(=O)Nc3cc(OCCN)c4ccccc4n3)n2)nc2ccccc12` the ΔTm was 5.8 ± 0.5 K (K-ras G-quadruplex DNA; FRET melting; 1 µM, pH 7.4, added: 60 mM potassium).
`CSCC[C@@H]1NC(=O)[C@H](C)NC(=O)[C@H](CCC(N)=O)NC(=O)[C@H](CCCNC(=N)N)NC(=O)[C@H](Cc2c[nH]c3ccccc23)NC(=O)CNC(=O)[C@H](CCSC)NC(=O)[C@@H]2CCCN2C(=O)[C@H](C)NC(=O)[C@@H](NC(=O)CN)CSSC[C@@H]2NC(=O)CNC(=O)[C@H](C)NC(=O)[C@H](CC(C)C)NC(=O)[C@@H]3CSSC[C@@H](C(=O)NCC(=O)O)NC(=O)[C@H](Cc4ccccc4)NC(=O)CNC(=O)[C@H](CC(N)=O)NC(=O)[C@@H]4CCCN4C(=O)CNC(=O)[C@H](CSSC[C@H](NC(=O)[C@H](CCCNC(=N)N)NC1=O)C(=O)N[C@@H](CCCCN)C(=O)N[C@@H](CCC(N)=O)C(=O)N[C@@H](CC(=O)O)C(=O)N[C@@H](CO)C(=O)N[C@@H](CC(=O)O)C(=O)N3)NC(=O)[C@H](C(C)C)NC2=O` gave an inhibition of about 75% (classical complement pathway; inhibitor, ELISA, refers to: C5b-9; concentration not given, saturating concentration).
With `Cc1ncsc1-c1ccc([C@H](CC(=O)NCCOCCOCCOCCOCCOCCC(=O)N2CCC(Nc3cc(C(=O)NC[C@H](O)CN4CCc5ccccc5C4)ncn3)CC2)NC(=O)[C@@H]2C[C@@H](O)CN2C(=O)[C@@H](NC(=O)C2(F)CC2)C(C)(C)C)cc1` the Dmax was over 85% (human MEP50; degrader, Western blot; MDA-MB-468; 72 h).
`CCCN(CCCCOCCOCCOCCOCC(=O)N[C@H](C(=O)N1C[C@H](O)C[C@H]1C(=O)NCc1ccc(-c2scnc2C)cc1)C(C)(C)C)C[C@@H](C)NC(=O)c1ccc(-c2noc(C(F)(F)F)n2)cc1` gave an IC50 of 2.1 µM (class I HDAC (human); inhibitor; Jurkat).
With `COc1cc(-c2cc(-c3ccc(N4CCNCC4)cc3)cnc2N)cc(OC)c1OC` the inhibition was 8% (human CK2; enzyme activity, inhibitor; 0.1 µM).
The ΔTm of `NCCCOc1cc(NC(=O)c2cc(OCc3c[nH]nn3)cc(C(=O)Nc3cc(OCCCN)c4ccccc4n3)n2)nc2ccccc12` is reported as 5.9 ± 0.5 K (K-ras G-quadruplex DNA; FRET melting; 1 µM, pH 7.4, added: 60 mM potassium).
With `COc1ccc(F)cc1C(=O)NCc1ccc(-c2nn([C@@H](C)C(F)(F)F)c(N)c2C(N)=O)cc1` the inhibition was 0.2% (MEK1/MEK2 human; probe binding, competitive chemoproteomics; human PBMCs; 0.01 µM).
`CN(C)CCOc1cc(NC(=O)c2cc(Cl)cc(C(=O)Nc3cc(OCCN(C)C)c4ccccc4n3)n2)nc2ccccc12` has a ΔTm of 10.3 ± 0.5 K (K-ras G-quadruplex DNA; FRET melting; 1 µM, pH 7.4, added: 60 mM potassium).
For `C/C=C(/C)C(=O)OC[C@H]1[C@@H](Cc2ccc(F)cc2)CO[C@@H]1c1ccc(F)cc1`, the IC50 was at least 20 µM (NF-κB; reporter gene; HEK293/NF-κB-luc; 4 h, added: TNFα 2 ng/mL).
With `COc1cc(C(=O)Nc2cc(OC)c3ccccc3n2)nc(C(=O)Nc2cc(OC)c3ccccc3n2)c1` the ΔTm was 2.3 ± 0.3 K (K-ras G-quadruplex DNA; FRET melting; 1 µM, pH 7.4, added: 60 mM potassium).
`Cc1ccc(C(=O)Nc2ccc3ccccc3c2)o1` has an inhibition of 14.1% and 25% and 23.7% and 17.3% and 19.8% (Kv2.1 potassium channel; ion current, inhibitor, whole-cell patch clamp; 10 µM).
`C/C=C(/C)C(=O)OC[C@H]1[C@@H](Cc2ccc(C(F)(F)F)cc2)CO[C@@H]1c1ccc(OC)c(OC)c1` gave an IC50 of at least 20 µM (NF-κB; reporter gene; HEK293/NF-κB-luc; 4 h, added: TNFα 2 ng/mL).
Under inhibition, `O=C(O)CCCCCCC(=O)Nc1ccc([C@H]2O[C@@H](CSc3nc(-c4ccccc4)c(-c4ccccc4)o3)C[C@@H](c3ccc(CO)cc3)O2)cc1` is recorded as “no effect” (human Hsp90 alpha/beta and p23; protein-protein interaction, split Renilla luciferase BLI; HEK293T; concentration not given, 24 h; relative to: vehicle).
`CC(=O)ON=C1C=CC(=C(C#N)c2ccccc2)C=C1` gave a remaining activity of 101% (Leishmania donovani TLK; enzyme activity, inhibitor, ADP-Glo; 2 µM, about MIC/10, added: ATP 10 µM).
`COc1cnc(Nc2cccc(S(N)(=O)=O)c2)nc1N1CCN(c2ccccc2)CC1` — result for “percent of control”: 78% (human FLT3 ITD; binding, KINOMEscan; 1000 nM; lower = stronger binding).
The inhibition of `CNc1cc(Oc2cc(C(=O)Nc3cc(N4CCN(C)CC4)cc(C(F)(F)F)c3)ccc2C)ncn1` is reported as -42.2% (MAP3K2/MAP3K3 (human); kinase probe binding, inhibitor, KiNativ; Huh-7; 1 µM).
`Nc1ccc2cc(C(=O)NS(=O)(=O)c3ccccc3-c3ccccc3)oc2c1`: activity class “inactive” (oestrogen receptor alpha (human); reporter gene; MCF7-MVLN, ER reporter gene; concentration not given).
`NCCCOc1cc(NC(=O)c2cc(Cl)cc(C(=O)Nc3cc(OCCCN)c4ccccc4n3)n2)nc2ccccc12` gave a ΔTm of 15.1 ± 0.9 K (K-ras G-quadruplex DNA; FRET melting; 1 µM, pH 7.4, added: 60 mM potassium).
`COc1c(O)cc2oc3cc(O)c(CC=C(C)C)c(O)c3c(=O)c2c1CC=C(C)C` — result for “normalized MyBP-C/MYH ratio”: 0.9% (MyBP-C and MYH; iPSC-derived cardiomyocytes (human); relative to: plate).
For `Oc1ccccc1-c1n[nH]cc1-c1ccnc2ccccc12`, “log2 fold change” read 0.07 (FPK1 (Candida albicans); kinase binding, MIB/MS competition; Candida albicans lysate; 1 µM; relative to: DMSO).
With `C#CCOc1cc(C(=O)Nc2cc(OCCN)c3ccccc3n2)nc(C(=O)Nc2cc(OCCN)c3ccccc3n2)c1` the ΔTm was 5.4 ± 0.4 K (K-ras G-quadruplex DNA; FRET melting; 1 µM, pH 7.4, added: 60 mM potassium).
`OC[C@H]1O[C@@H](Oc2cc3c4c(c2)[C@@H]([C@@H]2c5cc(O)cc6c5[C@@H](c5cc(O)cc(O)c5[C@H]2c2ccc(O)cc2)[C@H](c2ccc(O)cc2)O6)[C@H](c2ccc(O)cc2)c2c(O)cc(O)cc2[C@H]4[C@H](c2ccc(O)cc2)O3)[C@H](O)[C@@H](O)[C@@H]1O` — result for “decrease in inhibitory capacity”: about 50% (human pancreatic and salivary alpha-amylase; inhibitor; concentration not given; relative to: (−)-hopeaphenol).
`c1coc(-c2n[nH]cc2-c2ccnc3ccccc23)c1`: “log2 fold change” -0.17 (BCK1 (Candida albicans); kinase binding, MIB/MS competition; Candida albicans lysate; 10 µM; relative to: DMSO).
`CCNC(=O)/C=C/c1cccc(Br)c1` has a L-leucine uptake of 43.5 nmol/6 min/mg protein and 44.7 nmol/6 min/mg protein and 46.2 nmol/6 min/mg protein (endogenous neutral amino acid transporters, Chinese hamster; radioactive uptake; CHO-BC cells; 1 µM, added: 150 µM L-[14C]leucine, Na+).
`CCN(CC)CCNC(=O)c1c(C)[nH]c(/C=C2\C(=O)Nc3ccc(F)cc32)c1C` has an inhibition of 0% (JNK1α1 (human); kinase activity, inhibitor; 0.3 µM).
The inhibition of `CC(C)N=C(N)c1ccc2nc(-c3ccc(OCc4cccc(COc5ccc(-c6nc7ccc(C(N)=NC(C)C)cc7[nH]6)cc5)c4F)cc3)[nH]c2c1` is reported as 11.8 ± 22.3% (PU.1 (mouse); reporter gene, inhibitor, luciferase reporter; BV-2 cells PU.1-luciferase; concentration not given; relative to: DMSO).
The MyBP-C/MYH ratio of `COc1ccc(-c2coc3cc(OC)ccc3c2=O)cc1` is reported as -3.1 (MyBP-C and MYH; iPSC-derived cardiomyocytes (human); concentration not given; relative to: plate controls (SD units)).
`O=C(O)CCCOc1cccc(CNC(=O)C#Cc2cn(Cc3ccc(C(=O)O)cc3)c(=O)[nH]c2=O)c1`: “remaining MMP-2 activity” 96 ± 2% (MMP-2; inhibitor, FRET; 10 µM).

Excerpt of the above:
With `COc1ccc(F)cc1C(=O)NCc1ccc(-c2nn([C@@H](C)C(F)(F)F)c(N)c2C(N)=O)cc1` the inhibition was 0.2% (MEK1/MEK2 human; probe binding, competitive chemoproteomics; human PBMCs; 0.01 µM).
`CSCC[C@@H]1NC(=O)[C@H](C)NC(=O)[C@H](CCC(N)=O)NC(=O)[C@H](CCCNC(=N)N)NC(=O)[C@H](Cc2c[nH]c3ccccc23)NC(=O)CNC(=O)[C@H](CCSC)NC(=O)[C@@H]2CCCN2C(=O)[C@H](C)NC(=O)[C@@H](NC(=O)CN)CSSC[C@@H]2NC(=O)CNC(=O)[C@H](C)NC(=O)[C@H](CC(C)C)NC(=O)[C@@H]3CSSC[C@@H](C(=O)NCC(=O)O)NC(=O)[C@H](Cc4ccccc4)NC(=O)CNC(=O)[C@H](CC(N)=O)NC(=O)[C@@H]4CCCN4C(=O)CNC(=O)[C@H](CSSC[C@H](NC(=O)[C@H](CCCNC(=N)N)NC1=O)C(=O)N[C@@H](CCCCN)C(=O)N[C@@H](CCC(N)=O)C(=O)N[C@@H](CC(=O)O)C(=O)N[C@@H](CO)C(=O)N[C@@H](CC(=O)O)C(=O)N3)NC(=O)[C@H](C(C)C)NC2=O` gave an inhibition of about 75% (classical complement pathway; inhibitor, ELISA, refers to: C5b-9; concentration not given, saturating concentration).
Under inhibition, `O=C(O)CCCCCCC(=O)Nc1ccc([C@H]2O[C@@H](CSc3nc(-c4ccccc4)c(-c4ccccc4)o3)C[C@@H](c3ccc(CO)cc3)O2)cc1` is recorded as “no effect” (human Hsp90 alpha/beta and p23; protein-protein interaction, split Renilla luciferase BLI; HEK293T; concentration not given, 24 h; relative to: vehicle).
